Experimental data pooled from the literature.
Each line is one published result; not all experiments were run side by side. Numbers after ± are the reported error.
Chain of UniProt Q5T601 (whole entry, looked up): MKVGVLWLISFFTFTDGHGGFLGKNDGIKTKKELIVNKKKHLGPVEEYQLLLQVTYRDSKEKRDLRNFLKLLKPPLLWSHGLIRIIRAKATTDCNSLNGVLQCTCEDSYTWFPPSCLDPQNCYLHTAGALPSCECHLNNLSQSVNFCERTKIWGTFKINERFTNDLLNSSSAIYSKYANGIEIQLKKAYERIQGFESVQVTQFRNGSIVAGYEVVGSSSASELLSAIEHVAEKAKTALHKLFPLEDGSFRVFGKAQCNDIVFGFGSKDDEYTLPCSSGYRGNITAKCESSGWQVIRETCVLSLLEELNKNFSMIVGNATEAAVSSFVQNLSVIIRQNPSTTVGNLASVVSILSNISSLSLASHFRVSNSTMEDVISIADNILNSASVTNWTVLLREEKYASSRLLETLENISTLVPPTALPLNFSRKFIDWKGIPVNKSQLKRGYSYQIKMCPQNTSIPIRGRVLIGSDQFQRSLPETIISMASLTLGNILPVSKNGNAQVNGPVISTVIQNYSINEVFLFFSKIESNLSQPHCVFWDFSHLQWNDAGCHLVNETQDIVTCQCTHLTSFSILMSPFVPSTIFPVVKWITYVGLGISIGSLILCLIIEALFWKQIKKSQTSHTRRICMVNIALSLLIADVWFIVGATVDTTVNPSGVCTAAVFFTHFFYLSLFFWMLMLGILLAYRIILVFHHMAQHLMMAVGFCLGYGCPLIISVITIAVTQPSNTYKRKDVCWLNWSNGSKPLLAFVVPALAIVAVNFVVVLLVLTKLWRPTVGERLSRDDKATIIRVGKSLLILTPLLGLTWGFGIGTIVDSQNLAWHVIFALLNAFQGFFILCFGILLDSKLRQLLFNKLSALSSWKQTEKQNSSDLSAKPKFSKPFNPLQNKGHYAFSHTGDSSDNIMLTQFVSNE

SMILES | target or system | assay | system | setting | how to read | endpoint | value
CC(=O)c1c(C)c2cnc(Nc3ccc(C4CCN(CCS(C)(=O)=O)CC4)cn3)nc2n(C2CCCC2)c1=O |  |  | human, dose-escalation trial, plasma | oral, 50 mg twice daily, day 21, multiple doses |  | AUC(0-t) | 856 ng·h/mL
O=C1Nc2cc3[nH]nc(-c4ccncc4)c3cc2CN1Cc1ccccc1 |  | CTCAE v4.03 | human, relapsed or refractory advanced solid tumours | intravenous, 3.6 mg/kg |  | patients with retinal detachment | 0%
C[C@H]1CN(c2n[nH]c3nc(N[C@H]4CC[C@H](NS(=O)(=O)CCC(F)(F)F)CC4)ncc23)CCO1 | Tyrosine-protein kinase SYK (SYK, Homo sapiens, UniProt P43405) | inhibitor, Kinobeads competition profiling |  | 0.16 µM | baseline: vehicle | relative abundance | 1.03
C[C@]1(CO)Cc2ncn(-c3ccc(C#N)c(Cl)c3)c2C(=O)O1 |  |  | healthy human | all doses, European single ascending dose |  | severe TEAEs | 2.1%
Oc1ccc2c3c1O[C@H]1[C@@H](O)CC[C@@]4(O)[C@@H](C2)N(CC2CCC2)CC[C@]314 | ADGRF1 (Homo sapiens, UniProt Q5T601) | β-arrestin recruitment, TANGO luminescence, measured: GPR110 |  | concentration not given | baseline: basal luminescence | log2 fold change | 0.307
CO[C@H]1C[C@@H]2CC[C@@H](C)[C@@](O)(O2)C(=O)C(=O)N2CCCC[C@H]2C(=O)O[C@H]([C@H](C)C[C@@H]2CC[C@@H](OC(=O)NCCOCCOCCOCCOCCOCCOCCOCCOCCC(=O)N3CCc4cc(Cn5nc(-c6ccc7oc(N)nc7c6)c6c(N)ncnc65)ccc4C3)[C@H](OC)C2)C[C@@H](O)[C@H](C)/C=C(\C)[C@@H](O)[C@@H](OC)C(=O)[C@H](C)C[C@H](C)/C=C/C=C/C=C/1C |  | phase 1 dose escalation | advanced solid tumour patients | intravenous, 6 mg weekly, any grade |  | any TEAE incidence | 100%
CC(C)[C@@H]1NC(=O)[C@H](Cc2ccccc2)NC(=O)[C@@H]2NC(=O)[C@H](Cc3ccccc3)NC(=O)[C@@H]3CCCN3C(=O)CNC(=O)[C@H](Cc3ccccc3)NC(=O)[C@@H]3CNCCCC[C@@H](C(=O)O)NC(=O)[C@@H]4NC(=O)[C@H](CC(N)=O)NC(=O)CNC(=O)[C@H]([C@@H](O)C(=O)O)NC(=O)[C@H](CSC[C@@H](NC(=O)[C@H](CCC(N)=O)NC(=O)[C@H](CCCCNC(=O)c5ccc(NN)nc5)NC(=O)[C@@H](N)CS[C@H]4C)C(=O)N[C@@H](CS[C@H]2C)C(=O)N3)NC1=O [technetium-99m labelled] |  |  | rat, saline control, lung | intravenous, 2 h after tracer, tracer 24 h after reperfusion |  | tissue uptake | 0.2 ± 0.06 %ID/g
Clc1ccc(Cl)c(-c2cc(Cl)ccc2Cl)c1 |  |  | Sprague Dawley rat female, serum | intraperitoneal, 1 mg/kg, 3 weeks |  | concentration | 1 ng/g
CN1CC[C@@H](c2c(O)cc(O)c3c(=O)cc(-c4ccc(C(F)(F)F)cc4Cl)oc23)[C@@H]1CO |  | measured: Leukopenia | relapsed B-cell malignancies or AML | oral, 100 mg, grade 3-4, continuous dosing |  | patients with adverse event | 0%
COc1cc2c(Oc3ccc4[nH]c(C)cc4c3F)ccnc2cc1OCC1(N)CC1 |  |  | paediatric recurrent refractory sarcoma | 10 mg |  | grade 3 Thrombocytopenia | 0%
COc1ncnn2ccc(-c3cnc4nc(C)n(Cc5nnc([C@@H](C)F)o5)c4c3)c12 |  |  | human | oral, dose not given, grade 2 |  | patients with amylase increased | 7.1%
O=C(c1ccc(F)c(F)c1Nc1ccc(I)cc1F)N1CC(O)([C@@H]2CCCCN2)C1 |  |  | patients aged 6 to sample A years | oral, dose not given |  | adverse events | 100%
O=C(Nc1ccccc1)C1CCN(C(=O)Oc2cccnc2)CC1 |  | adverse event reporting | healthy women | oral, 20 mg, 7 days |  | subjects with infections and infestations | 7.1%
O=S(=O)(Nc1ccccc1)c1ccc(NC(=S)Nc2ccccc2)cc1 |  | measured: Glu | male mouse, blood | oral, 20 mg/kg daily, 14 days |  | blood chemistry level | 222 mg/dL
CC(C)C[C@@H]1NC(=O)[C@H](CC(C)C)NC(=O)[C@H](Cc2c[nH]c3ccccc23)NC(=O)[C@H](CO)NC(=O)[C@H](Cc2c[nH]c3ccccc23)NC(=O)[C@@H]2CCCN2C(=O)[C@H](CC(C)C)NC(=O)[C@H](Cc2c[nH]cn2)NC(=O)[C@@H]2CCCN2C(=O)[C@H](CC(N)=O)NC(=O)[C@H](C)NC(=O)[C@H](Cc2ccc(O)cc2)NC(=O)[C@H](CS)NC(=O)[C@H](CCCCNC(=O)CN2CCN(CC(=O)O)CCN(CC(=O)O)CCN(CC(=O)O)CC2)NC1=O [lutetium-177 labelled] |  |  | Balb/c mouse, female, 4T1 tumour, intestine | intravenous, 3.7 MBq, 1 h |  | tissue uptake | 0.34 ± 0.12 %ID
COc1cccc(-c2n[nH]c(SCc3ccccn3)n2)c1OC | Salmonella typhimurium | Ames test, plate incorporation | TA98 | 2.0 mg/plate, without S9 |  | revertant colonies per plate | 18

Excerpt of the above:
SMILES | target or system | assay | system | setting | how to read | endpoint | value
CN1CC[C@@H](c2c(O)cc(O)c3c(=O)cc(-c4ccc(C(F)(F)F)cc4Cl)oc23)[C@@H]1CO |  | measured: Leukopenia | relapsed B-cell malignancies or AML | oral, 100 mg, grade 3-4, continuous dosing |  | patients with adverse event | 0%
COc1cc2c(Oc3ccc4[nH]c(C)cc4c3F)ccnc2cc1OCC1(N)CC1 |  |  | paediatric recurrent refractory sarcoma | 10 mg |  | grade 3 Thrombocytopenia | 0%
